Published values gathered from unrelated publications.
Each line is one published result; not all experiments were run side by side. “And” joins repeats or separate records; there may be more than shown.
Target: Protein kinase C eta type (PRKCH, Homo sapiens, UniProt P24723)

SMILES	test	setting	scale	quantity	value
C=CC(=O)N1CCCC(n2c(=O)c3ncccc3n(Cc3ccc(Oc4ccccc4)cc3)c2=O)C1 (stereo not shown)	cell-free assay, competition with immobilised ligand	1 µM	–	remaining binding	92%
Cc1cnc2nc1Nc1cccc(c1)COC/C=C/COCc1cc(ccc1OCCN1CCOCC1)N2	binding	0.1 µM	–	remaining binding	100%
CN1CC[C@@H](COc2cnc(C#N)cc2-c2ccn3nc(NC(=O)C4CC4)cc3c2)C1	enzyme activity, inhibitor	1 µM	–	inhibition	-17%
COc1cc(Nc2nccc(-c3cnn4nc(OC)ccc34)n2)cc(C(F)(F)F)c1	binding, competition with immobilised ligand	1 µM	–	remaining binding	100%
O=C(Cc1ccc(OCc2ccccc2)cc1)NC1(C(=O)O)CCN(C(=O)c2ccc(-c3cccc(Cl)c3)cc2)CC1	enzyme activity, inhibitor	10 µM	–	activity vs control	97%
NC(=O)[C@@H](O)C[C@H]1CCc2sc3ncnc(O[C@H]4CC[C@H](N5CCOCC5)CC4)c3c21	enzyme activity, inhibitor	10 µM	–	inhibition	10%
CNC1C[S+]2CC[S+]3CC[S+](C1)[Ru-4]321([N]=C=S)[n]2c3ccc(OC)cc3c3c4c(c5cc(F)c[n+]1c5c32)C(=O)NC4=O (stereo not shown)	KinomeScan	0.1 µM	reference: untreated	remaining binding	82%
C=CC(=O)Nc1cccc(-c2cnc3[nH]cc(C(=O)NC(C)(C)C)c3n2)c1	kinase activity	0.1 µM	–	inhibition	-1% and 5%
Nc1ncc(-c2cc(-c3cnn(CC(F)(F)F)c3)ncc2F)nc1C(=O)NC1CNCC(F)C1 (stereo not shown)	enzyme activity	1 µM	reference: DMSO control	remaining activity	90.2%
C=CC(=O)N1Cc2nc(-c3cc(-c4cc(Cl)cnc4Cl)c(F)cc3F)n(-c3ccncn3)c2C1	cell-free assay	1 µM	–	inhibition	1.7%
C=CC(=O)N1CCc2ccc(-n3c(=O)ccc4cnc5ccc(-c6cnn(C)c6)cc5c43)cc21	KINOMEscan	1 µM	reference: DMSO control	remaining binding	90%
Cc1cccc(O[C@H]2CCC[C@@H](C(C)CNCc3ccncc3)C2)c1 (relative stereo)	enzyme activity	1 µM	–	inhibition	3%
CNC(=O)C1CCN(c2cc(C)c(F)cc2NC(=O)c2ccc(-c3cc(O)ccc3C)c(C)c2)CC1	binding, competition with immobilised ligand	1 µM	–	remaining binding	95%
